Measured values gathered from unrelated publications.
Every numbered part comes from another study and shows a few of its results, in no order. Values joined by “and” are separate records of one study, mostly repeats; a detail may differ.
Sequence of UniProt Q14289 (whole entry, looked up): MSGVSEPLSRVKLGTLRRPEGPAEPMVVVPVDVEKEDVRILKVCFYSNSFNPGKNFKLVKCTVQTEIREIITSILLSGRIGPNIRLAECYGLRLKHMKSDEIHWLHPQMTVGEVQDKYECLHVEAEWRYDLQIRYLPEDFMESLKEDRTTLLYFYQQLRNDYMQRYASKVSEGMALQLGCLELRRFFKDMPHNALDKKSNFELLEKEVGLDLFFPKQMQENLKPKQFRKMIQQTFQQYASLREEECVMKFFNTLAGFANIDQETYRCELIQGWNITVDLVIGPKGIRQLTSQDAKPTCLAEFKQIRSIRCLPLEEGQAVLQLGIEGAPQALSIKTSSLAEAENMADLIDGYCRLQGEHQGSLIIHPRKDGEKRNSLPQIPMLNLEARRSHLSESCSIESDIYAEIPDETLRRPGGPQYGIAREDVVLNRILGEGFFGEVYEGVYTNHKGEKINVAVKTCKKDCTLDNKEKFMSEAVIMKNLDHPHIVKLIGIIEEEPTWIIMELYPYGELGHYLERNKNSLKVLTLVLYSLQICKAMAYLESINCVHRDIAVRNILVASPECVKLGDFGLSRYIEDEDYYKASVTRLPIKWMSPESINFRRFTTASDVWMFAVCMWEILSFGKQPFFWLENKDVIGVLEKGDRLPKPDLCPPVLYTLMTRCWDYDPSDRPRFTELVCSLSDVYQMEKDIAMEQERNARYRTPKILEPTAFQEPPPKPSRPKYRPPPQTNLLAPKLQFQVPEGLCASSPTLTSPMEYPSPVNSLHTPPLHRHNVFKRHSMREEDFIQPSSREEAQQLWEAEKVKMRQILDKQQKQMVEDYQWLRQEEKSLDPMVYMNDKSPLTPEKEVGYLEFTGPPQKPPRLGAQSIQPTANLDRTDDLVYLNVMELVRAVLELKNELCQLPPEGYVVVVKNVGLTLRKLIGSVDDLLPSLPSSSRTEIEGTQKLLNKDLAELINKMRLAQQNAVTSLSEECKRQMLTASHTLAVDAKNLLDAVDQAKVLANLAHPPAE
Sequence of UniProt Q9H4B4 (whole entry, looked up): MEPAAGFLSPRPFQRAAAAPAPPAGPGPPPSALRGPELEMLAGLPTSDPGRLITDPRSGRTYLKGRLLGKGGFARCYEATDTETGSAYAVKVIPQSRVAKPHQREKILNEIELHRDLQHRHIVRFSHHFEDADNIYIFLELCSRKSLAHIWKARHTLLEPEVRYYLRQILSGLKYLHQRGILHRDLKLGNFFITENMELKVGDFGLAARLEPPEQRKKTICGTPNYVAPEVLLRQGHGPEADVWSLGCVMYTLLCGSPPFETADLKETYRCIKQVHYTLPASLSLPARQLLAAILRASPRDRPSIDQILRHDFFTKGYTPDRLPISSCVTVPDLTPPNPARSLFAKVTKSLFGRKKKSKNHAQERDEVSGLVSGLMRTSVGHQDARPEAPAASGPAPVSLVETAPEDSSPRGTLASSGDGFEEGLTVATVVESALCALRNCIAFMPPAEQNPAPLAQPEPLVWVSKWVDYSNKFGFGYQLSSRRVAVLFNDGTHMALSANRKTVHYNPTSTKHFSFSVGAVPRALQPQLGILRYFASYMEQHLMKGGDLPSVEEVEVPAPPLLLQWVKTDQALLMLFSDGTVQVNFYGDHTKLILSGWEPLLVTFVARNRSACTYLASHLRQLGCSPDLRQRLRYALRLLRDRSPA
Sequence of UniProt Q9UM73 (whole entry, looked up): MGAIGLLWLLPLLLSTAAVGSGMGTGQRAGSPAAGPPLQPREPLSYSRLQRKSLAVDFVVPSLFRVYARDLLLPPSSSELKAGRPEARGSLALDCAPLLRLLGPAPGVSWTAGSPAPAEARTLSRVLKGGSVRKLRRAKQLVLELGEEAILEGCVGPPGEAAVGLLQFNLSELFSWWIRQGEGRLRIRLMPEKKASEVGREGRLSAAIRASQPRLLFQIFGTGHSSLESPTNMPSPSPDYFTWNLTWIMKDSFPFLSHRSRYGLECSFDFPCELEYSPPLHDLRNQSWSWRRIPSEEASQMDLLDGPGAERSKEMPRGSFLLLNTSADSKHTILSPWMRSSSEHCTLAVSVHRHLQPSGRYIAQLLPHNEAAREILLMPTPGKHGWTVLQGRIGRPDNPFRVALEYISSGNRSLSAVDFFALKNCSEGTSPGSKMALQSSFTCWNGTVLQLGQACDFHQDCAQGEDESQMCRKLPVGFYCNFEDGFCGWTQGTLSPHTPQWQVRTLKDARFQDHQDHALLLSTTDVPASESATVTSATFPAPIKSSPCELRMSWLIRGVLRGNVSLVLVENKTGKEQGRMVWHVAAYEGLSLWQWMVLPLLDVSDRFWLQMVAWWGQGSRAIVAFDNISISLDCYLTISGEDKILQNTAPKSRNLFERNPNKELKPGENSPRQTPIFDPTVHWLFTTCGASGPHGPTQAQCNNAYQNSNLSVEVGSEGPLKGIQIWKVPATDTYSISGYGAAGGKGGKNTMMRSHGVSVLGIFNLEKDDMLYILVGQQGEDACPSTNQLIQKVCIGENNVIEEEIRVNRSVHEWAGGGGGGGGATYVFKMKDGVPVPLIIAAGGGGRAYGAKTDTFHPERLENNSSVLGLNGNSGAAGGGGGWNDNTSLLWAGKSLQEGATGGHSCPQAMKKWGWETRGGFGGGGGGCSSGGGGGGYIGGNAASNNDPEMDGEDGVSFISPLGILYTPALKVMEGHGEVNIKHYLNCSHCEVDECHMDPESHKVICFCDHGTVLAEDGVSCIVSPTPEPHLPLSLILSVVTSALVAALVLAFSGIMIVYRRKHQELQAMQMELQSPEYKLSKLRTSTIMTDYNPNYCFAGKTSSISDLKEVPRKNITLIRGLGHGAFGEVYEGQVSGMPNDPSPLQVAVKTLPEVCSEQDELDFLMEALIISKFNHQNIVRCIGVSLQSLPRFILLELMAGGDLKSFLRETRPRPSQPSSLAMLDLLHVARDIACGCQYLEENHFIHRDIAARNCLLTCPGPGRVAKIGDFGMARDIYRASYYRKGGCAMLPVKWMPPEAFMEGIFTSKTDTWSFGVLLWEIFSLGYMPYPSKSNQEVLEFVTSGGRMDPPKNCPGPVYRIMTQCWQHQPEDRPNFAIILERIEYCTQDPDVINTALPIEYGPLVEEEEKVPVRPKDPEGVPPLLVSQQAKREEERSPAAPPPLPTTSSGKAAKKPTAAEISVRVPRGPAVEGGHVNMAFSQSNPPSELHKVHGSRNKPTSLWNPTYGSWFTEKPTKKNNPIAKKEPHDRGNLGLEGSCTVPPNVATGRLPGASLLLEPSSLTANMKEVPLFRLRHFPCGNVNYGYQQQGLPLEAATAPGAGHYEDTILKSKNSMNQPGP

Study 1 — technique: Phase 2a trial; host: idiopathic pulmonary fibrosis patients
SMILES: CC(C)n1cnc(-c2ccc(F)cc2)c1-c1ncc(C(=O)Nc2ccc(N3CCN(C)CC3)cc2)[nH]1
For refers to: reticulocyte count increased; 30 mg once daily, grade 4 maximum intensity: “patients with adverse events” read 0%.
It gave 0% for “patients with adverse events” (refers to: reticulocyte count increased; dose not given, grade 5 maximum intensity, all arms).
It gave 0% for “patients with adverse events” (refers to: muscular weakness; dose not given, grade 4 maximum intensity, all arms).
The “patients with adverse events” was 0% (refers to: eye disorders (SOC); 60 mg once daily, grade 3 maximum intensity).

Study 2 — read-out: enzyme activity; mode: inhibitor; concentration: 0.5 µM; baseline: control
Target: Tyrosine-protein kinase ZAP-70 (ZAP70, Homo sapiens, UniProt P43403)
Sequence of UniProt P43403 (whole entry, looked up): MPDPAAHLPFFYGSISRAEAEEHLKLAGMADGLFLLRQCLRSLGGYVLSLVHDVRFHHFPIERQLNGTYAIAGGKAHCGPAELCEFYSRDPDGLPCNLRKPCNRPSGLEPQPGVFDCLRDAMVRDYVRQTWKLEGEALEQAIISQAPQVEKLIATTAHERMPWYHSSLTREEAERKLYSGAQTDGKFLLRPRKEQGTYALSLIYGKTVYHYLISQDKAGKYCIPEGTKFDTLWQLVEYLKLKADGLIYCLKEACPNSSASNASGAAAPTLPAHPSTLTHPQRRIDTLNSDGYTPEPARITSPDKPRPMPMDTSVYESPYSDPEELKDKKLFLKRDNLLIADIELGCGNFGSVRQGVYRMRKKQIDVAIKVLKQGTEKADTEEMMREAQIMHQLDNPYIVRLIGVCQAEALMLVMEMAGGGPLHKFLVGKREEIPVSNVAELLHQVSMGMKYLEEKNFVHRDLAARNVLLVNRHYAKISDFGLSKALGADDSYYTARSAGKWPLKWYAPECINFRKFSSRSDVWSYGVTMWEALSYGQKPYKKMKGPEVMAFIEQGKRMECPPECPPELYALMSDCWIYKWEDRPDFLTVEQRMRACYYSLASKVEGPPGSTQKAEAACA
The remaining activity of CN(C)c1ccc(C=C2C(=O)Nc3ccccc32)cc1 is reported as 89.9%.
N#CC(C#N)=C(N)/C(C#N)=C/c1ccc(O)cc1 has a remaining activity of 96%.
With O=C1NC(=O)C(c2cn(CCCn3ccnc3)c3ccccc23)=C1Nc1ccccc1 the remaining activity was 104%.
With O=C(Nc1cccc(Nc2cc(Nc3cccc(C(F)(F)F)c3)ncn2)c1)C1CC1 the remaining activity was 93%.
Cc1nc(-c2ccccc2)c(-c2ccncc2)o1 has a remaining activity of 98.8%.
O=C(CCCc1ccc(-c2ccccc2F)cc1)Nc1ccc(O)cc1 has a remaining activity of 99.7%.
For COc1ccc(OC)c2c(=S)c3ccccc3[nH]c12, the remaining activity was 100%.
Nc1ncnc2n[nH]c(Nc3ccc(F)cc3)c12 has a remaining activity of 95.2%.
Cc1ccc(NC(=O)c2ccc(CN3CCN(C)CC3)cc2)cc1Nc1nc(-c2cccnc2)cs1 has a remaining activity of 112%.
NCCNc1ncc(C(N)=O)c(Nc2cccc(C(F)(F)F)c2)n1 gave a remaining activity of 95.3%.
For O=S(=O)(c1cccc2cnccc12)N1CCCNCC1, the remaining activity was 108%.
O=c1c2ccccc2[nH]c(=S)n1CCN1CCC(=C(c2ccc(F)cc2)c2ccc(F)cc2)CC1 gave a remaining activity of 98%.
With CNC(=O)c1cc(Oc2ccc(NC(=O)Nc3ccc(Cl)c(C(F)(F)F)c3)cc2)ccn1 the remaining activity was 97.8%.
O=C(O)c1ccc2c3c1cccc3c(=O)n1c3ccccc3nc21 gave a remaining activity of 119%.
C#Cc1cccc(Nc2ncnc3cc(OCCOC)c(OCCOC)cc23)c1 has a remaining activity of 94.4%.

Study 3 — host: human; matrix: microsomes or S9; concentration: 2 µM; time: 0.5 h
CCN(CC)c1ccc(/C=N/n2c(C)nnc2C)cc1 has a remaining compound of 59.2%.
The remaining compound of Cn1ccc(-c2ccc(-c3cc(Br)cnc3N)nc2)n1 is reported as 27.8%.
COc1ccc(C)cc1NC(=O)c1cc2c(=O)n3cccc(C)c3nc2n1Cc1ccccc1 gave a remaining compound of 34%.
With CCOC(=O)c1c(NC(=O)c2cc(OC)c(OC)c(OC)c2)sc(C)c1-c1ccc(OC)c(OC)c1 the remaining compound was 0.521%.

Study 4 — cell line: A-375; concentration: 100 µM; time: 18 h
For O=C1CC[C@@H](C(=O)N2CSC[C@H]2C(=O)O)N1, the viability was 88.1%.
The viability of CC1=C(/C=C/C(C)=C/C=C/C(C)=C/CO)C(C)(C)CCC1 is reported as 45.8%.
With CN(C)CCc1c[nH]c2ccc(C[C@H]3COC(=O)N3)cc12 the viability was 78.8%.

Study 5 — SMILES: CC(C)(O)c1cncc(-c2nc3ccc(F)cc3n2C2CC2)c1; read-out: cell-free assay; technique: competition with immobilised ligand; concentration: 1 µM
The remaining binding was 100% (PLK3 (Homo sapiens, UniProt Q9H4B4)).
For ALK (Homo sapiens, UniProt Q9UM73): remaining binding read 77%.
It gave 100% for remaining binding (PTK2B (Homo sapiens, UniProt Q14289)).

Mixed results
For CC1=C(/C=C/C(C)=C/C=C/C(C)=C/C(=O)O)C(C)(C)CCC1, “relative cell number” read 0.565 and 0.494 and 0.575 (HuT78; trypan blue count; concentration not given; baseline: vehicle).

Some of these lines once more (study 2):
Cc1nc(-c2ccccc2)c(-c2ccncc2)o1 has a remaining activity of 98.8%.
With O=C1NC(=O)C(c2cn(CCCn3ccnc3)c3ccccc23)=C1Nc1ccccc1 the remaining activity was 104%.
